Results collected from several papers.
Each line is one published result; not all experiments were run side by side. Numbers after ± are the reported error.
rep main protease: Replicase polyprotein 1ab, main protease (rep, Severe acute respiratory syndrome coronavirus 2, UniProt P0DTD1)
rep nsp12 RdRp: Replicase polyprotein 1ab, nsp12 RdRp (rep, Severe acute respiratory syndrome coronavirus 2, UniProt P0DTD1)
rep papain-like protease: Replicase polyprotein 1ab, papain-like protease (rep, Severe acute respiratory syndrome coronavirus 2, UniProt P0DTD1)
OPRD1: Delta-type opioid receptor (OPRD1, Homo sapiens, UniProt P41143)
Chain of UniProt P41143 (whole entry, looked up): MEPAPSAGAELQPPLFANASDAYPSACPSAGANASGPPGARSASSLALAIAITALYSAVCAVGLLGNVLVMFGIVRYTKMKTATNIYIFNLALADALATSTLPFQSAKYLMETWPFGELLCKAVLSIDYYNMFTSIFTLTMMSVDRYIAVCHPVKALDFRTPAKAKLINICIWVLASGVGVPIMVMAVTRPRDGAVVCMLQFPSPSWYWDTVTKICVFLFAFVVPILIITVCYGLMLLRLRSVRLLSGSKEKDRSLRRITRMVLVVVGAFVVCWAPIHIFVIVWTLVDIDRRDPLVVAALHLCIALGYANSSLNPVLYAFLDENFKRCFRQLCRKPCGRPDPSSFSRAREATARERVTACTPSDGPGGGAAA

CCCCCCCCCCCCCCCC(=O)N[C@@H](CCC(=O)NCCOCCOCCC(=O)NCCOCCOCCC(=O)NCCCC[C@H](NC(=O)[C@H](CC(=O)O)NC(=O)[C@H](CC(C)C)NC(=O)[C@H](Cc1ccc(O)cc1)NC(=O)[C@H](CCCCN)NC(=O)[C@H](CO)NC(=O)[C@H](Cc1ccc(O)cc1)NC(=O)[C@H](CC(=O)O)NC(=O)[C@H](CO)NC(=O)[C@@H](NC(=O)[C@H](Cc1ccccc1)NC(=O)[C@@H](NC(=O)CNC(=O)[C@H](CCC(N)=O)NC(=O)[C@@H](CO)NC(=O)[C@@H](N)Cc1c[nH]cn1)[C@@H](C)O)[C@@H](C)O)C(=O)N[C@@H](CCCNC(=N)N)C(=O)N[C@@H](CCCNC(=N)N)C(=O)N[C@@H](C)C(=O)N[C@@H](CCC(N)=O)C(=O)N[C@@H](CC(=O)O)C(=O)N[C@@H](Cc1ccccc1)C(=O)N[C@H](C(=O)N[C@@H](CCC(N)=O)C(=O)N[C@@H](Cc1c[nH]c2ccccc12)C(=O)N[C@@H](CC(C)C)C(=O)N[C@@H](CC(C)C)C(=O)N[C@@H](CC(N)=O)C(=O)N[C@H](C(=O)NCC(=O)NCC(=O)N1CCC[C@H]1C(=O)N[C@@H](CO)C(=O)N[C@@H](CO)C(=O)NCC(=O)N[C@@H](C)C(=O)N1CCC[C@H]1C(=O)N1CCC[C@H]1C(=O)N1CCC[C@H]1C(=O)N[C@@H](CO)C(N)=O)[C@@H](C)O)C(C)C)C(=O)O — serum enzyme activity (item: CK; rhesus monkey, male; subcutaneous, 20 µg/kg once daily, 28 days): 161 ± 57 U/L
O=C(/C=C/c1ccc(O)cc1)O[C@@H]1Cc2c(O)cc(O)cc2O[C@@H]1c1ccc(O)c(O)c1 — Kd (rep main protease; binding, SPR): 4.48 µM
CCOc1cccc(NC(=O)CSc2cn(C(=O)OC(C)(C)C)c3ccccc23)c1 — EC50 (rep nsp12 RdRp; viral replication, item: Gaussia luciferase; A549, SARS-CoV-2; 72 h): 1.18 µM
COc1cc(O)ccc1CN(C)[C@H](C)c1cccc2ccccc12 — EC50 (rep papain-like protease; enzyme activity in cells, inhibitor): > 60 µM
Cc1ccc(OCCN(C)C)cc1C(=O)N[C@H](C)c1cc(-c2cnn(C)c2)cc(-c2cnn(CC(F)(F)F)c2)c1 — EC50 (rep papain-like protease; protease activity, inhibitor, FlipGFP; SARS-CoV-2): 2.4 ± 0.4 µM
CC(C)C[C@H](NC(=O)[C@H](CO[C@@H]1O[C@H](CO)[C@@H](O)[C@H](O)[C@H]1O)NC(=O)[C@H](CCCCN)NC(=O)[C@H](CC(C)C)NC(=O)CNC(=O)[C@H](CCCCN)NC(=O)[C@H](CCC(=O)O)NC(=O)CNC(=O)[C@H](CC(C)C)NC(=O)[C@H](CC(N)=O)NC(=O)[C@@H]1CCCN1C(=O)[C@H](CC(C)C)NC(=O)[C@H](Cc1ccccc1)NC(=O)CNC(=O)[C@H](NC(=O)[C@@H](N)Cc1ccc(O)cc1)[C@H](C)O)C(N)=O — Ki (OPRD1; ligand displacement, radioligand; pH 7.5, cell membranes): 0.0071 µM
CC(=O)N[C@@H](Cc1ccc(O)cc1)C(=O)N[C@@H](CC(=O)O)C(=O)N[C@H]1CCC[C@@H]1C(=O)N[C@@H](Cc1ccccc1)C(=O)N[C@@H](Cc1ccc(O)cc1)C(=O)N[C@H]1CCC[C@@H]1C(=O)N[C@@H](Cc1ccc(O)cc1)C(=O)N[C@H](C(=O)N[C@H](C(=O)N[C@@H](Cc1ccccc1)C(=O)N[C@@H](Cc1c[nH]cn1)C(=O)N[C@H](C(=O)N[C@@H](C)C(=O)N[C@H](C(N)=O)[C@@H](C)O)C(C)C)[C@@H](C)O)C(C)C — Kd (rep main protease; binding, SPR): 0.0295 µM
CC(C)C[C@H](NC(=O)[C@H](CO)NC(=O)[C@H](CCCCN)NC(=O)[C@H](CC(C)C)NC(=O)C(C)(C)NC(=O)[C@H](CCCCN)NC(=O)[C@H](CCC(=O)O)NC(=O)[C@H](C)NC(=O)[C@H](CC(C)C)NC(=O)[C@H](CC(N)=O)NC(=O)[C@@H]1CCCN1C(=O)[C@H](CC(C)C)NC(=O)[C@H](Cc1ccccc1)NC(=O)CNC(=O)[C@H](NC(=O)[C@@H](N)Cc1ccc(O)cc1)[C@H](C)O)C(N)=O — Ki (OPRD1; ligand displacement, radioligand; pH 7.5, cell membranes): 0.015 µM
O=C(Oc1cncc(Cl)c1)c1cccs1 — IC50 (rep main protease; enzyme activity, inhibitor): 1.9 µM
Cc1ccc(OCCN(C)C)cc1C(=O)N[C@H](C)c1cc(-c2cnn(C)c2)cc(-c2cnn(C3CC3)c2)c1 — EC50 (rep papain-like protease; protease activity, inhibitor, FlipGFP; SARS-CoV-2): 0.6 ± 0.1 µM
C[C@H](c1cccc2ccccc12)N(C)Cc1cccc2[nH]ccc12 — EC50 (rep papain-like protease; enzyme activity in cells, inhibitor): < 10 µM
Cc1ccc(OCCN(C)C)cc1C(=O)N[C@H](C)c1cc(-c2cnn(C)c2)cc(-c2cncs2)c1 — EC50 (rep papain-like protease; protease activity, inhibitor, FlipGFP; SARS-CoV-2): 1.3 ± 0.3 µM
Cc1cccc(NC(=O)CSc2c[nH]c3ccccc23)c1 — EC50 (rep nsp12 RdRp; SARS-CoV-2 RdRp (nsp12/7/8) activity, inhibitor; HEK293T; 24 h): 2.53 µM

Some of these lines once more:
Cc1ccc(OCCN(C)C)cc1C(=O)N[C@H](C)c1cc(-c2cnn(C)c2)cc(-c2cncs2)c1 — EC50 (rep papain-like protease; protease activity, inhibitor, FlipGFP; SARS-CoV-2): 1.3 ± 0.3 µM
Cc1cccc(NC(=O)CSc2c[nH]c3ccccc23)c1 — EC50 (rep nsp12 RdRp; SARS-CoV-2 RdRp (nsp12/7/8) activity, inhibitor; HEK293T; 24 h): 2.53 µM
